Measured values pooled from the literature.
Parts stem from different laboratories: compare values within a part only. Changes are numbered by the printed parent chain.

Sample 1 — method: DHFR PCA, deep sequencing; medium: yeast; added: (+)-ABA 200 µM; baseline: wild-type fitted maximum; direction: higher = stronger binding
Target: ABI1, truncated, D143A, DHFR fusion (Arabidopsis thaliana)
Setting: methotrexate growth selection, single substitutions
Starting sequence: PYL1, truncated, DHFR fusion (Arabidopsis thaliana); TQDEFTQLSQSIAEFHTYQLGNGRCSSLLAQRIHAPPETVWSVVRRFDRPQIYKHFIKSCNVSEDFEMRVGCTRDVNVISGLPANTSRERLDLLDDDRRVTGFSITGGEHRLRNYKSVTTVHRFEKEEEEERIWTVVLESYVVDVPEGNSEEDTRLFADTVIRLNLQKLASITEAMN; partner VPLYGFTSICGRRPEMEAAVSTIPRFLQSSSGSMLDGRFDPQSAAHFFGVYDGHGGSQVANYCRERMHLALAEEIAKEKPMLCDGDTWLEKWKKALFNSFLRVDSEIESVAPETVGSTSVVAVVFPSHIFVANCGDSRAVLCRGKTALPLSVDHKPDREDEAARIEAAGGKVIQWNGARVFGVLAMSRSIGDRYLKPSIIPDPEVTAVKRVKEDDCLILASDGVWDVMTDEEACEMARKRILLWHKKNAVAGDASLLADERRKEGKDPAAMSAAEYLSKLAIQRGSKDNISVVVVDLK
| Change | relative binding score |
| --- | --- |
| L82P | 85.3% |
| V142D | 81.8% |
| R132C | 106% |
| F5T | 96.3% |
| E89M | -5.32% |
| P36G | 84.2% |
| S42M | 91.2% |
| T154K | 15.7% |
| T135S | 103% |
| E14I | 85.2% |
| R45E | 11% |
| W134L | 104% |

Sample 2 — method: protein binding microarray; molecule type: double-stranded DNA, one strand shown; medium: in vitro; tested at: not given; baseline: not given; direction: higher = stronger binding
Target: Histone acetyltransferase KAT6A, both winged helices, GST fusion (KAT6A, Homo sapiens, UniProt Q92794, residues 1-181)
Setting: 8-mer, flanks averaged, mean of 2 arrays, mostly near background
Target sequence (chain): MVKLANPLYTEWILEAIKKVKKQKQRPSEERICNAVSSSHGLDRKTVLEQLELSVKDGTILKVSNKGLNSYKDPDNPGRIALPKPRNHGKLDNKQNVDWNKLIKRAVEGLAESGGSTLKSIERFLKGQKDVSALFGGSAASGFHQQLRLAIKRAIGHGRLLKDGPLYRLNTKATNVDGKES
| Sequence | E-score |
| --- | --- |
| CATTGAAC | -0.0196 |
| ATCTTCCA | -0.101 |
| GCCGCGAA | 0.315 |
| AGGTCCTA | -0.158 |
| ATAACTTG | -0.175 |
| TGTGGCAA | 0.00717 |
| GAGCCACA | -0.191 |
| AGGTGCAA | -0.255 |
| ACCCCCCT | -0.245 |
| CTGAGGTC | -0.109 |
| CACGCTGA | 0.0872 |
| AACCTCCG | 0.006 |
| GGAATGAA | 0.103 |
| GTATCAAC | -0.123 |
| CCGATACA | 0.0403 |
| GCGTATAC | 0.197 |
| ACGTATAA | 0.141 |
| ACCATTAT | -0.0373 |
| CCGTGGAG | 0.163 |
| GGATCGGA | 0.144 |
| ATCCTGTG | -0.0491 |
| GAGTATGA | 0.0258 |
| CGTAAGAC | 0.0542 |
| AGTGTAGA | -0.252 |
| CGTGGCGA | 0.11 |

Sample 3 — method: protein-binding microarray; molecule type: double-stranded DNA, one strand shown; medium: in vitro; tested at: 2540 nM top; setting: 60-bp whole probe; added: salmon DNA 0.4 mg/ml; baseline: random background probes; direction: higher = stronger binding; all sequences stand within: GCCTAGCAC … GTCTTGATTCGCTTGACGCTGCTG
Target: Interferon regulatory factor 3, full length, phosphomimetic (IRF3, Homo sapiens, UniProt Q14653, residues 1-427, S386D/S396D/S398D/S402D/T404D/S405D)
Target sequence (chain): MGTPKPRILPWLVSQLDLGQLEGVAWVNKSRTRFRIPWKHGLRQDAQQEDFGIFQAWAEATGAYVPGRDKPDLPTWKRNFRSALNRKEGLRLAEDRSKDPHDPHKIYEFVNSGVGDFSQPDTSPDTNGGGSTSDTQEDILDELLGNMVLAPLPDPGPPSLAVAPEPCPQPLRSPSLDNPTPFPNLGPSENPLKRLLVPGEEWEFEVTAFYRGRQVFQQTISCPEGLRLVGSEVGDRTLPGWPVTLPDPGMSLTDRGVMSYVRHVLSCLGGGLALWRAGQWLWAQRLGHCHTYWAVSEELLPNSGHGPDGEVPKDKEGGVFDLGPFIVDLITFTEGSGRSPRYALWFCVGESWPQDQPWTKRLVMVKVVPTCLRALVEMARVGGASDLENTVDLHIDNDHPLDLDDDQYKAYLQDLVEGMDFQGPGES
| Sequence | fitted relative affinity [z-score] |
| --- | --- |
| TCAGATTTCAGTCTCGATTAGTGCTAG | 2.7 |
| TTGGAACTGAGTATCGATTAGTGCTAG | -0.0534 |
| TCAACTTTGGTTTGTACACTGTGCTAG | 0.0625 |
| TTAGGTCTCGGACTGGGTTTGTGCTAG | -0.477 |
| GACGGTATCGACTCTCGGGACGTGCTA | 1.3 |
| TTAGGACTGGGGACTGGGTTTGTGCTA | -1.13 |
| GACCGTATCGACTTTCGGGACGTGCTA | 2.19 |
| GATGGTTTCGGGTATCGGGACGTGCTA | 4.19 |
| GACGGTTTCGGTTCAGGGACGTGCTAG | 9.42 |
| TCAGGTATCGACACTGGGTTAGTGCTA | 0.459 |
| TGGGATTTTGTCCTCCCCTCGTGCTAG | -0.642 |
| GACAGACTGCTACTGCTGACGTGCTAG | -0.491 |
| ATGAAATGCCACACACACACGTGCTAG | -0.226 |
| GAGGAACTGGGGTTTCGAGACGTGCTA | -0.066 |
| TTAGGTTTCGGGTTTCGGTTCGTGCTA | 6.68 |
| TCATTTTGCACTCTCTAACTGTGCTAG | 1.7 |
| CAGGGGCTGCCTGGATGCCGGTGCTAG | -1.34 |
| TTAGATATTAAACTGATAGGGTGCTAG | -0.158 |
| TTAGAACTGGGGACTTGATTAGTGCTA | -0.888 |
| GATGGTATCGGGTTTCGGGACGTGCTA | 2.87 |
| GACGATTTGAGTTTCGAGACGTGCTAG | 1.54 |
| TTGAGGTTTTCTCTGGTTCTGTGCTAG | -0.318 |
| TCATGGTTGAACATGAAACTGTGCTAG | -0.377 |
| TCAACTTTCTTTTTTTCACTGTGCTAG | 3.04 |
| TCACATCTCTCTTAAATACTGTGCTAG | 1.16 |

Sample 4 — target: ATF7, bZIP domain (human); method: DHFR protein complementation; medium: yeast; baseline: wild-type JUN-FOS pair; direction: higher = stronger binding
Setting: single substitutions, most at no-binding floor
Starting sequence: JUN, bZIP domain (human); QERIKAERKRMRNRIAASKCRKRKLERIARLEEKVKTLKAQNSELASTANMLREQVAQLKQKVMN; partner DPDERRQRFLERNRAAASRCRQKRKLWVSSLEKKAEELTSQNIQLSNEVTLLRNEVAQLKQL
| Change | binding fitness [natural log] |
| --- | --- |
| S47H | -0.768 |
| L45T | -1.47 |
| A49K | -1.1 |
| Q41K | -0.859 |
| S43V | -0.976 |
| I28K | -1.05 |
| L52V | -1.35 |
| V35C | -1 |
| N42Y | -1.19 |
| A46F | -1.13 |
| T37Q | -0.731 |
| R53I | -1.46 |
| E44G | -1.35 |
| K34N | -1.4 |
| I28E | -0.996 |
| E44F | -1.09 |
| T48D | -1.26 |
| A57L | -1.08 |
| E33L | -1.09 |

Sample 5 — target: CCNB3, cyclin fold, Cln2 fusion (human); method: yeast growth competition, sequencing; medium: yeast; setting: weak parent motif; baseline: not given; direction: higher = stronger binding
Starting sequence: CDC42EP1 docking peptide (human); SLVVGKLSFDSSP
| Change | normalised enrichment score |
| --- | --- |
| SLVVGKLSFASSP [D10A] | 0.272 |
| SLVVGKLSFDASP [S11A] | 0.0399 |
| SAVVGKLSFDSSP [L2A] | 0.141 |
| SLVVGKLSADSSP [F9A] | -0.147 |
| SLVVGKASFDSSP [L7A] | 0.0195 |
| SLVAGKLSFDSSP [V4A] | -0.0811 |
| SLVVGKLAFDSSP [S8A] | -0.17 |

Sample 6 — method: universal PBM; molecule type: double-stranded DNA, one strand shown; medium: in vitro; tested at: 600 nM; direction: higher = stronger binding
Target: Sal-like protein 4, full length isoform A (SALL4, Homo sapiens, UniProt Q9UJQ4, residues 1-1053)
Chain of UniProt Q9UJQ4 (whole entry, looked up): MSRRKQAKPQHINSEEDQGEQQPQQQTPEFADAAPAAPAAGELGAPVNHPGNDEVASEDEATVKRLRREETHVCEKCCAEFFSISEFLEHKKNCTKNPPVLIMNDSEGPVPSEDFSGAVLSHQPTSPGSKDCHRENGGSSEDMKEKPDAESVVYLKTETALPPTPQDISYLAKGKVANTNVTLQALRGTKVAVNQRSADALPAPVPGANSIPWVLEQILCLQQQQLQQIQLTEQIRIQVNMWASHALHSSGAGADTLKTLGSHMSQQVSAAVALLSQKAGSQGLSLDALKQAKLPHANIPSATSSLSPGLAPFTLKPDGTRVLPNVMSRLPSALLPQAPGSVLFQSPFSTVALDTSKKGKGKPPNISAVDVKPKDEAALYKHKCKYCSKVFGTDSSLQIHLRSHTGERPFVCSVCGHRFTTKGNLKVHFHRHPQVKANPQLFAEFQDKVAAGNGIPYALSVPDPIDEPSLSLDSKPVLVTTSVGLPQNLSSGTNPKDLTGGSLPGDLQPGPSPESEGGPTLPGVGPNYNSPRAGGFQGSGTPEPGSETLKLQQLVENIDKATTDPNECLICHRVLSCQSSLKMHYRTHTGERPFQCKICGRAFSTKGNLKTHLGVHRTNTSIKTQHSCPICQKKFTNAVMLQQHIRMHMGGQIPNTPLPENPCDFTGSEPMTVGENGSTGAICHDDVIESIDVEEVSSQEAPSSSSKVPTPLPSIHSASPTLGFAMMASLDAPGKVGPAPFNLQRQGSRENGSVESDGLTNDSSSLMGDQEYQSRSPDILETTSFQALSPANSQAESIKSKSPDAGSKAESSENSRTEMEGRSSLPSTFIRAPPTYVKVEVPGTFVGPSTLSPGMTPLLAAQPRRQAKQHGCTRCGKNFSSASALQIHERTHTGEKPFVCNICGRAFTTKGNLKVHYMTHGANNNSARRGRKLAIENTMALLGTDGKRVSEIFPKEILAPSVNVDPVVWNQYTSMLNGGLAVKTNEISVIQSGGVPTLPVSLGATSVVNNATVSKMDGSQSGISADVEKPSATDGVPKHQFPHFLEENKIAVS
Setting: 8-mer, flanks averaged, mean of replicates
| Sequence | E-score |
| --- | --- |
| CAATCGGC | -0.115 |
| ACTGTTCG | 0.0687 |
| AAAATAGA | 0.357 |
| GAGAACAC | -0.164 |
| CCCAGCTC | -0.317 |
| ATGGTGAC | -0.024 |
| AGAAACGA | -0.0327 |
| GTCAGGCA | -0.00594 |
| CGTTAGTC | 0.00211 |
| CTCCGGTA | -0.0817 |
| ACTACGTC | -0.0123 |
| AGTTTAAT | 0.25 |
| CTCAGCAC | -0.159 |
| GTGAATGA | 0.115 |
| TAAGGACA | 0.0428 |
| CCTTTTCC | -0.0743 |
| AGTTCCAG | -0.188 |
| AACACACC | 0.0216 |
| CTGGCCTC | -0.283 |
| CCTCTCCA | -0.12 |
| CATCTCAG | -0.0146 |
| GTATCCCA | -0.0348 |
| AGCGCTAA | 0.0124 |
| CAGATTCA | 0.0971 |
| ACTCCCCT | -0.159 |

Sample 7 — method: RNA Bind-n-Seq; molecule type: RNA; medium: in vitro; tested at: 20 nM; setting: 6-mer, flanks averaged, single round; added: 150 mM KCl; baseline: input library; direction: higher = stronger binding
Target: TAR DNA-binding protein 43, full length, His tag (TARDBP, Homo sapiens, UniProt Q13148, residues 1-414)
| Sequence | 6-mer enrichment (R) |
| --- | --- |
| CUCUGU | 0.613 |
| CCCGUU | 0.606 |
| AGUCAG | 0.849 |
| CAGAAG | 0.95 |
| GACGUA | 0.848 |
| GUUGUA | 0.829 |
| AGAUCA | 0.633 |
| UAAAGA | 0.661 |
| CUAGUA | 0.63 |
| UUGGGU | 1.63 |
| AGUUUA | 0.617 |
| UCCAGA | 0.657 |
| GCCGGA | 1.45 |
| CUGUAA | 0.649 |
| CGGUAG | 1.33 |
| CGACCC | 0.655 |

Other studies, line by line
| Molecule | target | test | test system | setting | how to read | measurement | value |
| --- | --- | --- | --- | --- | --- | --- | --- |
| PhoQ, residues 284 288 289 292 302 303 NLMGRA | PhoP, residues 12 14 15 18 19 VHSCL (Escherichia coli, UniProt P23836) | Sort-seq, item: YFP reporter | E. coli | PhoQ-PhoP variant library, added: 10 µM Mg2+ | baseline: high Mg2+ state, higher = stronger signaling | fold induction | 18.9 |
